Published values from different studies.
Lines come from different studies, so protocols differ. ± gives the spread as reported.

SMILES	test	test system	conditions	scale	endpoint	result
N=C(N)NCCC[C@@H]1NC(=O)[C@H](CCCCNC(=O)CNC(=O)CNC(=O)CNC(=O)CC[C@H](NC(=O)CNC(=O)CNC(=O)CNC(=O)CN2CCN(CC(=O)O)CCN(CC(=O)O)CCN(CC(=O)O)CC2)C(=O)NCC(=O)NCC(=O)NCC(=O)NCCCC[C@@H]2NC(=O)[C@@H](Cc3ccccc3)NC(=O)[C@H](CC(=O)O)NC(=O)CNC(=O)[C@H](CCCNC(=N)N)NC2=O)NC(=O)[C@@H](Cc2ccccc2)NC(=O)[C@H](CC(=O)O)NC(=O)CNC1=O [indium-111 labelled]	–	female athymic nu/nu mice, heart	intravenous, 4 h	–	tissue uptake	0.44 ± 0.02 %ID/g
CCCC[C@H](NC(=O)COCCOCCNC(=O)CN1CCN(CC(=O)O)CCN(CC(=O)O)CC1)C(=O)N[C@H]1CC(=O)NCCCC[C@@H](C(N)=O)NC(=O)[C@H](Cc2c[nH]c3ccccc23)NC(=O)[C@H](CCCNC(=N)N)NC(=O)[C@@H](Cc2ccccc2)NC(=O)[C@H](Cc2c[nH]cn2)NC1=O [copper-64 labelled]	–	C57 mice, blood	intravenous, 0.37 MBq, 24 h	–	tissue uptake	0.27 ± 0.1 %ID/g
CCCC[C@H](NC(=O)CNC(=O)CNC(=O)CN1CCN(CC(=O)O)CCN(CC(=O)O)CCN(CC(=O)O)CC1)C(=O)N[C@H]1CC(=O)NCCCC[C@@H](C(N)=O)NC(=O)[C@H](Cc2c[nH]c3ccccc23)NC(=O)[C@H](CCCNC(=N)N)NC(=O)[C@@H](Cc2ccccc2)NC(=O)[C@H](Cc2c[nH]cn2)NC1=O [lutetium-177 labelled]	–	C57 mouse, female, tumour	intravenous, 0.037 MBq, 24 h	–	tissue uptake	8.24 ± 1.51 %ID/g
CCCC[C@H](NC(=O)CNC(=O)CNC(=O)CN1CCN(CC(=O)O)CCN(CC(=O)O)CC1)C(=O)N[C@H]1CC(=O)NCCCC[C@@H](C(N)=O)NC(=O)[C@H](Cc2c[nH]c3ccccc23)NC(=O)[C@H](CCCNC(=N)N)NC(=O)[C@@H](Cc2ccccc2)NC(=O)[C@H](Cc2c[nH]cn2)NC1=O [technetium-99m labelled]	–	C57 mouse, lung	iv, 0.037 MBq, 24 h	–	tissue uptake	0.03 ± 0.03 %ID/g
Cc1cc(-c2ccc(NC(=O)[C@H](CCCCNC(=O)CCOCCOCCC(=O)N[C@H](Cc3ccccc3)C(=O)N[C@H]3CSSC[C@@H](C(=O)N[C@H](C(=O)O)[C@@H](C)O)NC(=O)[C@H]([C@@H](C)O)NC(=O)[C@H](CCCCN)NC(=O)[C@@H](Cc4c[nH]c5ccccc45)NC(=O)[C@H](Cc4ccc(O)cc4)NC3=O)NC(=O)CN3CCN(CC(=O)O)CCN(CC(=O)O)CCN(CC(=O)O)CC3)c(C)c2)ccc1N=Nc1ccc2c(S(=O)(=O)O)cc(S(=O)(=O)O)c(N)c2c1O [lutetium-177 labelled]	–	metastatic NET patients, lymph node metastases	–	–	absorbed dose	1.69 ± 0.64 Gy/GBq
CC(C)C[C@H](NC(=O)[C@H](Cc1ccc(O)cc1)NC(=O)[C@@H](CCCNC(=N)N)NC(=O)[C@@H](CO)NC(=O)[C@H](Cc1ccccc1)NC(=O)[C@H](CC1CCCCC1)NC(=O)[C@H](CC(=O)O)NC(=O)CN1CCCN2CCN(CCCN(CC(=O)O)CC2)CC1)C(=O)N[C@@H](Cc1c[nH]c2ccccc12)C(=O)N[C@@H](CO)C(=O)O [copper-64 labelled]	–	female NMRI nude mice, muscle	22 h p.i.	–	tissue uptake	0.2 ± 0.1 %ID/g
N=C(N)NCCC[C@@H]1NC(=O)[C@H](CCCCNC(=O)CNC(=O)CNC(=O)CNC(=O)CC[C@H](NC(=O)CNC(=O)CNC(=O)CNC(=O)CC[C@H](NC(=O)CN2CCN(CC(=O)O)CCN(CC(=O)O)CCN(CC(=O)O)CC2)C(=O)NCC(=O)NCC(=O)NCC(=O)N[C@@H](CCC(=O)NCC(=O)NCC(=O)NCC(=O)NCCCC[C@@H]2NC(=O)[C@@H](Cc3ccccc3)NC(=O)[C@H](CC(=O)O)NC(=O)CNC(=O)[C@H](CCCNC(=N)N)NC2=O)C(=O)NCC(=O)NCC(=O)NCC(=O)NCCCC[C@@H]2NC(=O)[C@@H](Cc3ccccc3)NC(=O)[C@H](CC(=O)O)NC(=O)CNC(=O)[C@H](CCCNC(=N)N)NC2=O)C(=O)NCC(=O)NCC(=O)NCC(=O)NCCCC[C@@H]2NC(=O)[C@@H](Cc3ccccc3)NC(=O)[C@H](CC(=O)O)NC(=O)CNC(=O)[C@H](CCCNC(=N)N)NC2=O)NC(=O)[C@@H](Cc2ccccc2)NC(=O)[C@H](CC(=O)O)NC(=O)CNC1=O [indium-111 labelled]	–	female athymic nu/nu mice, eyes	intravenous, 24 h	–	tissue uptake	0.83 ± 0.2 %ID/g
Cc1cc(-c2ccc(NC(=O)[C@H](CCCCNC(=O)CCN3C(=O)CC(SCCC(=O)N[C@H](Cc4ccccc4)C(=O)N[C@H]4CSSC[C@@H](C(=O)N[C@H](C(=O)O)[C@@H](C)O)NC(=O)[C@H]([C@@H](C)O)NC(=O)[C@H](CCCCN)NC(=O)[C@@H](Cc5c[nH]c6ccccc56)NC(=O)[C@H](Cc5ccc(O)cc5)NC4=O)C3=O)NC(=O)CN3CCN(CC(=O)O)CCN(CC(=O)O)CCN(CC(=O)O)CC3)c(C)c2)ccc1N=Nc1ccc2c(S(=O)(=O)O)cc(S(=O)(=O)O)c(N)c2c1O (some centres unmarked) [gallium-68 labelled]	micro-PET	male BALB/c nude mouse, AR42J xenograft, tumour and muscle	intravenous, 7.4 MBq, 4 h	relative to: tumour over muscle	tumour-to-tissue uptake ratio	5.39 ± 0.97

A few entries again:
SMILES	test	test system	conditions	scale	endpoint	result
CCCC[C@H](NC(=O)CNC(=O)CNC(=O)CN1CCN(CC(=O)O)CCN(CC(=O)O)CCN(CC(=O)O)CC1)C(=O)N[C@H]1CC(=O)NCCCC[C@@H](C(N)=O)NC(=O)[C@H](Cc2c[nH]c3ccccc23)NC(=O)[C@H](CCCNC(=N)N)NC(=O)[C@@H](Cc2ccccc2)NC(=O)[C@H](Cc2c[nH]cn2)NC1=O [lutetium-177 labelled]	–	C57 mouse, female, tumour	intravenous, 0.037 MBq, 24 h	–	tissue uptake	8.24 ± 1.51 %ID/g
